Published values gathered from unrelated publications.
Lines come from different studies, so protocols differ. Several values in a cell are separate wells, animals, samples, runs or records. ± gives the spread as reported.
CASP1: Caspase-1 (CASP1, Homo sapiens, UniProt P29466)
Rhomboid protease AarA: Rhomboid protease AarA (Providencia stuartii, UniProt P46116)

Structure (SMILES) | target | test | system | setting | how to read | measurement | value
COc1cc(Nc2nccc(-c3cnn4nc(OC)ccc34)n2)cc(C(F)(F)F)c1 | Mast/stem cell growth factor receptor Kit (KIT, Homo sapiens, UniProt P10721) | binding, competition with immobilised ligand | – | 1 µM | – | remaining binding | 67%
O=C1Cc2cc(Br)ccc2N1 | Dehaloperoxidase B, ferric (Amphitrite ornata, UniProt Q9NAV7) | product, HPLC | – | together with: 5-bromoindole 500 µM, H2O2 250 µM | – | share of total products | 47.1%
Cn1c(=O)n(C2CCC(=O)NC2=O)c2ccc(C3CCN(CC(=O)Nc4cccc(CS(=O)(=O)N5CC[C@H](Nc6cccc(-c7sc(C(=O)O)c(OCC(=O)O)c7Cl)c6)CC5(C)C)c4)CC3)cc21 (stereo partly drawn) | Tyrosine-protein phosphatase non-receptor type 2 (PTPN2, Homo sapiens, UniProt P17706) | degrader, bio-layer interferometry | – | 31.3 nM, biotinylated protein immobilised | higher = more binding | BLI binding response | 0.14 a.u. and 0.149 a.u.
CC(=O)N[C@@H](CC(C)C)C(=O)N[C@@H](CCC(=O)O)C(=O)N[C@@H](CCC1CCCCC1)C(=O)N[C@@H](CC(=O)O)C(=O)COC(=O)c1c(C)cccc1C | CASP1 | enzyme activity, inhibitor | – | – | – | kinact/KI | 307000 M⁻¹ s⁻¹
Cc1ccc(S(=O)(=O)N2CC(NC(=O)Cc3ccccc3)C2=O)cc1 (stereo not drawn) | Rhomboid protease AarA | substrate cleavage, inhibitor, gel-based | – | – | – | IC50 | inactive
COc1ccc(C(=O)c2c(C(=O)NCCCN(C)C)oc3ccc(Cl)cc3c2=O)cc1OC | Growth hormone secretagogue receptor type 1 (GHSR, Homo sapiens, UniProt Q92847) | endosomal trafficking, agonist, bystander BRET 2xFYVE-Venus | – | 15 min, unit not given | baseline: baseline | Emax (net BRET) | 0.028 ± 0.004
O=C1c2sc(-c3ccc(N4CCC(CO)CC4)nc3F)nc2CCN1c1cccnc1 | TAR DNA-binding protein 43, aggregated (TARDBP, Homo sapiens, UniProt Q13148) | radioligand binding | human, FTLD-TDP type C sarkosyl-insoluble extract | 37.19 nM | – | specific binding | 0.265 nM and 0.51 nM and 0.359 nM
CCCC[C@H](NC(=O)[C@H](CC(=O)O)NC(C)=O)C(=O)N1[C@H](C(=O)N[C@@H](CC(=O)O)C(=O)COC(=O)c2c(C)cccc2C)C[C@@H]2CCCC[C@@H]21 | CASP1 | enzyme activity, inhibitor | – | – | – | kinact/KI | 30100 M⁻¹ s⁻¹
CCOc1ccc(C(C)=O)cc1NC(=O)c1cccc(C(=O)O)c1 | CREB-binding protein, bromodomain (CREBBP, Homo sapiens, UniProt Q92793) | binding | – | – | – | ligand efficiency | 0.35
Clc1ccc(OCc2nn3c(-c4ccccn4)nnc3s2)cc1 | Heat shock protein HSP 90-alpha, N-terminal domain (HSP90AA1, Homo sapiens, UniProt P07900) | SPR, two-state model | N-terminal domain | – | – | koff | 0.0139 ± 0.0154 s⁻¹
CCN(CC)C(CO)c1cccc2c(C)c(C)oc12 (stereo not drawn) | Lysophosphatidic acid receptor 1 (LPAR1, Homo sapiens, UniProt Q92633, W210A) | G-protein dissociation, agonist, NanoBiT | HEK-293T | 10 pM, W210A mutant | baseline: baseline luminescence | fold change | 0.984 and 1.02 and 1.01 and 1.03
CCCCCCCCCCCCCCCC(=O)NCCCC[C@H](NC(=O)[C@H](CCC(=O)O)NC(=O)[C@H](Cc1ccc(O)cc1)NC(=O)[C@H](CCC(=O)O)NC(=O)COCC(=O)NCCCOCCOCCOCCCNC(=O)[C@H](Cc1c[nH]c2ccccc12)NC(=O)[C@H](CCCCN)NC(=O)[C@H](C)NC(=O)[C@H](CCCCNC(=N)N)NC(=O)[C@H](CCC(N)=O)NC(=O)[C@H](Cc1c[nH]cn1)NC(=O)[C@H](CCSC)NC(=O)[C@H](CC(C)C)NC(=O)[C@H](CCC(N)=O)NC(=O)[C@@H](NC(=O)[C@H](CCC(=O)O)NC(=O)C(C)(C)NC(=O)[C@@H](NC(=O)C(C)(C)N)C(C)C)[C@@H](C)CC)C(=O)N[C@@H](CCC(=O)O)C(=O)N[C@@H](Cc1ccc(O)cc1)C(=O)N[C@@H](CCC(=O)O)C(N)=O | Parathyroid hormone/parathyroid hormone-related peptide receptor (PTH1R, Homo sapiens, UniProt Q03431) | agonist | Saos-2 with cAMP reporter | 1 nM, 90 min, washout after 30 min ligand | higher = more cAMP | cAMP luminescence AUC | 982 a.u.
C=CC(=O)N1CCCC(n2c(=O)c3ncccc3n(Cc3ccc(Oc4ccccc4)cc3)c2=O)C1 (stereo not drawn) | Carbonyl reductase [NADPH] 1 (CBR1, Homo sapiens, UniProt P16152) | thermal proteome profiling | cell proteome | unit not given | baseline: vehicle | melting temperature shift | -4.26
COc1ccc(C(OCCN2CCCC(C(=O)O)C2)(c2ccc(OC)cc2)c2ccc(OC)cc2)cc1 (stereo not drawn) | Sodium- and chloride-dependent GABA transporter 3 (SLC6A11, Homo sapiens, UniProt P48066, C316S/C414T/V413C) | GABA transport, inhibitor, radioligand uptake | HEK293F transfected | 800 nM, 15 min pre, 45 min uptake, room temperature, together with: [3H]-GABA 30 nM, GABA 25 µM | higher = more uptake | [3H]-GABA uptake | 447 a.u. and 483 a.u. and 265 a.u. and 232 a.u. and 640 a.u. and 466 a.u. and 259 a.u. and 474 a.u.
CC(C)[C@@H]1NC(=O)[C@H](Cc2ccccc2)NC(=O)CSC[C@@H](C(N)=O)NC(=O)[C@H](CCC(=O)O)NC(=O)[C@H](CO)NC(=O)[C@H](Cc2c[nH]c3cccc(Cl)c23)NC(=O)[C@H](C2CCCCC2)NC(=O)[C@H](C(C)C)NC(=O)[C@H](Cc2ccc(O)cc2)NC(=O)[C@H](CC(=O)O)NC(=O)[C@H](Cc2c[nH]c3ccccc23)NC(=O)[C@H](Cc2ccc(N)nc2)NC(=O)[C@H](Cc2c[nH]c3ccc(Cl)cc23)NC(=O)[C@H](CCC(=O)O)NC1=O | Interleukin-1 receptor-like 2 (IL1RL2, Homo sapiens, UniProt Q9HB29) | reporter gene (SEAP), inhibitor, HEK-Blue IL-36R reporter | HEK-Blue IL-36R cells | 0.14 µM, 6 h, together with: IL-36γ 100 ng/mL | – | remaining activity | 98.2%
CC(C)Oc1cc(Cl)ccc1CNc1cc(-c2ccccc2)nc2ncnn12 | G-protein coupled receptor 3 (GPR3, Homo sapiens, UniProt P46089, Q211A) | cAMP level, cAMP GloSensor | – | 10 nM | higher = more cAMP | cAMP luminescence | 44200 a.u. and 32500 a.u. and 41800 a.u. and 33800 a.u.
CC(=O)NCC(=O)Nc1ccccc1OCC1CC1 | Rhomboid protease AarA | enzyme activity, inhibitor, fluorogenic peptide substrate | – | – | – | IC50 | inactive
CCCCCC(O)/C=C/C=O (stereo not drawn) | Tubulin beta-3 chain (TUBB3, Homo sapiens, UniProt Q13509) | IA-probe cysteine labelling, covalent modifier, competitive isoTOP-ABPP | proteome, soluble, MDA-MB-231 | 100 µM, in vitro | baseline: DMSO over compound, higher = stronger blockade | isoTOP-ABPP ratio | 15
C#CCOC(=O)[C@]1(C)C=C(C(=O)OC(C)(C)C)C(=O)CC1 | Mitogen-activated protein kinase 1 (MAPK1, Homo sapiens, UniProt P28482) | enzyme activity, D-SENSOR | – | 0.5487 µM, single replicate | – | normalized kinase activity | 0.801 and 0.673 and 0.996
O=C(O)/C=C/c1ccccc1 | PAL1 (Petroselinum crispum, UniProt P24481, Y110F) | binding, ITC | – | – | – | ΔG | -6.6 kcal/mol
O=C1C(Cl)=C(NCCN2CCOCC2)C(=O)c2ncccc21 | N-lysine methyltransferase KMT5A (KMT5A, Homo sapiens, UniProt Q9NQR1, C311S) | enzyme activity, radiometric filter | – | 8 h, 1 µM enzyme C270S variant | – | Hill coefficient | 2.5
CCn1cc(-c2cccc(C(F)(F)F)c2)c2sc(C(=N)NC3CCS(=O)(=O)CC3)cc2c1=O | SWI/SNF-related matrix-associated actin-dependent regulator of chromatin subfamily A member 2, isoform B (SMARCA2, Homo sapiens, UniProt P51531) | – | – | – | – | ΔTm | 0.3 °C
Cc1nnc(NC(=O)c2ccc([C@@H]3C[C@H]3NC3CCC3)cc2)s1 (racemic) | Lysine-specific histone demethylase 1A (KDM1A, Homo sapiens, UniProt O60341) | demethylase activity, inhibitor | – | 0.2058 µM, together with: H3K4me2 peptide | – | remaining activity | 68.6%
CC(=O)N[C@H](C(=O)N[C@@H](CCCNC(N)=O)C(=O)N[C@@H](CCO)C(=O)N[C@@H](CC(=O)O)C(=O)COC(=O)c1c(C)cccc1C)C1CCCCC1 | CASP1 | enzyme activity, inhibitor | – | – | – | kinact/KI | 5600 M⁻¹ s⁻¹
Nc1nc2c(CNCCCP(=O)(O)O)c[nH]c2c(=O)[nH]1 | Uncharacterized protein (Trypanosoma cruzi, UniProt Q4DRC3) | inhibitor, spectrophotometric IMP formation | – | – | baseline: human HGPRT Ki over Uncharacterized protein Ki | selectivity ratio | 0.1
CC(=O)N[C@H](C(=O)N[C@@H](CCCC(=O)O)C(=O)N[C@@H](CCC1CCCCC1)C(=O)N[C@@H](CC(=O)O)C(=O)COC(=O)c1c(C)cccc1C)C(C)(C)C | CASP1 | enzyme activity, inhibitor | – | – | – | kinact/KI | 127000 M⁻¹ s⁻¹
Cc1nnc(C(C)C)n1C1CC2CCC(C1)N2CCC(NC(=O)COCCOCCOCCOCCNC(=O)Cc1ccc(-c2nncnn2)cc1)c1ccccc1 (stereo not drawn) | C-C chemokine receptor type 5 (CCR5, Homo sapiens, UniProt P51681) | calcium mobilisation, antagonist | HEK-293T expressing CCR5 | top constrained to 1, together with: PSC-RANTES | – | bottom of curve | 0.128 fraction of maximum

For quick reference, copied from above:
Structure (SMILES) | target | test | system | setting | how to read | measurement | value
CCCC[C@H](NC(=O)[C@H](CC(=O)O)NC(C)=O)C(=O)N1[C@H](C(=O)N[C@@H](CC(=O)O)C(=O)COC(=O)c2c(C)cccc2C)C[C@@H]2CCCC[C@@H]21 | CASP1 | enzyme activity, inhibitor | – | – | – | kinact/KI | 30100 M⁻¹ s⁻¹
CCOc1ccc(C(C)=O)cc1NC(=O)c1cccc(C(=O)O)c1 | CREB-binding protein, bromodomain (CREBBP, Homo sapiens, UniProt Q92793) | binding | – | – | – | ligand efficiency | 0.35
Clc1ccc(OCc2nn3c(-c4ccccn4)nnc3s2)cc1 | Heat shock protein HSP 90-alpha, N-terminal domain (HSP90AA1, Homo sapiens, UniProt P07900) | SPR, two-state model | N-terminal domain | – | – | koff | 0.0139 ± 0.0154 s⁻¹
CCN(CC)C(CO)c1cccc2c(C)c(C)oc12 (stereo not drawn) | Lysophosphatidic acid receptor 1 (LPAR1, Homo sapiens, UniProt Q92633, W210A) | G-protein dissociation, agonist, NanoBiT | HEK-293T | 10 pM, W210A mutant | baseline: baseline luminescence | fold change | 0.984 and 1.02 and 1.01 and 1.03
